Measured values gathered from unrelated publications.
Numbered parts are unrelated; each lists some results of a single study.

Study 1
Target: Phosphate system positive regulatory protein PHO4, full length, GST-tagged (PHO4, Saccharomyces cerevisiae, UniProt P07270, residues 1-312)
Technique: competition protein-binding microarray
Molecule type: double-stranded DNA, one strand shown
Medium: in vitro
Tested at: 2 µM
Setting: whole 60-bp probe, lowest competitor level
Together with: Cbf1 competitor, 0.05 µM
Reading: higher = stronger binding
Endpoint: fluorescence intensity
Construct (chain): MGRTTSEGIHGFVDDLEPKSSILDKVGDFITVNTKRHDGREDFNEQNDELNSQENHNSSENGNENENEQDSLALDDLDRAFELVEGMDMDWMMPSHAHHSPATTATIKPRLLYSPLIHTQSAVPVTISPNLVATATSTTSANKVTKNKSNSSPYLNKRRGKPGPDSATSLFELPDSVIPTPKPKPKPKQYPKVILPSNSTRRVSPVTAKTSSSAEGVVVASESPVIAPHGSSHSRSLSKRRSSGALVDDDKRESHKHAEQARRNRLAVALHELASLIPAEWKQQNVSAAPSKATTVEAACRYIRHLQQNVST
Oligonucleotide = AGAAACAACACTACTGCTGTGACAGTTCAAATCGGTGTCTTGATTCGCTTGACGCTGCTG; result = 3950 a.u.
Oligonucleotide = CATACCCAACCTTGTCACCACACTTAAGATATTTGTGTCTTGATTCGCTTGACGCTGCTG; result = 5370 a.u.
Oligonucleotide = CGGGGTTAAGTTTGACGAGTGGGTGGCTTGCAGCAGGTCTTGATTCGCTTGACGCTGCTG; result = 4390 a.u.
Oligonucleotide = GTCTTGTCTCATTGTCACCCGACTTTCCCCACTTCAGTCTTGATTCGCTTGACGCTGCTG; result = 4720 a.u.
Oligonucleotide = CTAACGAAGGTTTTTCACGTGCTCTACAAGCCAAGTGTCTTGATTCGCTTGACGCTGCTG; result = 13900 a.u.
Oligonucleotide = TATTGACAGCATTCGATCGTGCAATGGGAAATAACGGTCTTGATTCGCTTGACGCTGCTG; result = 6260 a.u.
Oligonucleotide = GAACTGCCGCCGGTGGACGTGCTTTGCGTCCGAGTCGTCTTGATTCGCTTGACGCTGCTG; result = 4650 a.u.
Oligonucleotide = ACACAGCCGTACCTACACGTGCCAGTTATCTTGATAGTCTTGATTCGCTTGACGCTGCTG; result = 17500 a.u.
Oligonucleotide = CTTTCCCGATCTTGTCACCATACTTTAGCACATTTGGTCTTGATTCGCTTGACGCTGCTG; result = 4090 a.u.
Oligonucleotide = CGAGTCTAATGACTTGACGTGGCCGTTTTTCTTGTCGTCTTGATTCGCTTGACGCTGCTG; result = 3950 a.u.
Oligonucleotide = TCTATTCCGCGGTAACCTATGGTTACGGCCAGATTTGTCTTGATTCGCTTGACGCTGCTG; result = 3030 a.u.
Oligonucleotide = TCAGAGGTATTCTCTCATGTGGTGAAGTCCATCAATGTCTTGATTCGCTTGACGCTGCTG; result = 6910 a.u.
Oligonucleotide = CGTATACATAGGCATTGCGTGTTGAAAAATTGTCGGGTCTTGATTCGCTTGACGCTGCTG; result = 7260 a.u.
Oligonucleotide = TCTTATTTAATTCGTCACAGACGGTAACGCAGCGCCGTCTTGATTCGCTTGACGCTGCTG; result = 3560 a.u.
Oligonucleotide = GCGTCCATGGGAGTGCTCCTGCAACGTACTTCATCTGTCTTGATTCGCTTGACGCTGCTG; result = 4320 a.u.
Oligonucleotide = AGTAGCGATGACTGTCATGAAGATGAAAGGGTGCGGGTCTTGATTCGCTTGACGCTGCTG; result = 3780 a.u.
Oligonucleotide = CCATACGTTTACGTAGGCGTGCTTTTTTCAAAGAGTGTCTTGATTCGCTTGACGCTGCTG; result = 9400 a.u.
Oligonucleotide = CTTCTGTAAATTTGGGACGTGGGTGGACGCGCCCCGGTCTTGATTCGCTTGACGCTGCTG; result = 6400 a.u.
Oligonucleotide = TGGAGCCCGCAGCGTCACATGGCGTCTGGGGGCTTGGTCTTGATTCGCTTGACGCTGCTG; result = 6480 a.u.
Oligonucleotide = ATGGCCGCTGGTCCTCACGTGTATATATGGAGGGAGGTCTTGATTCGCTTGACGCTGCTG; result = 16700 a.u.

Study 2
Target: Prothrombin, mature alpha-thrombin (F2, Homo sapiens, UniProt P00734)
Technique: aptamer microarray, sandwich
Molecule type: DNA with 2'F-ANA
Medium: in vitro
Tested at: 200 nM
Setting: whole 15-mer aptamer, many near background
Together with: Cy3 exosite-II aptamer, 400 nM
Reading: higher = stronger binding
Endpoint: mean fluorescence intensity
Oligonucleotide: GGTTGGTGTGGTTGG
Modification = 2'F-ANA at 1 2 9 12; result = 390 a.u.
Modification = 2'F-ANA at 1 5 7 11 12 14 15; result = 46 a.u.
Modification = 2'F-ANA at 3 4 7 8 9 11 12 13 15; result = 663 a.u.
Modification = 2'F-ANA at 1 4 5 7 8 9 11 13; result = 47.7 a.u.
Modification = 2'F-ANA at 4 7 9 10 11; result = 86.1 a.u.
Modification = 2'F-ANA at 1 3 6 11 13; result = 223 a.u.
Modification = 2'F-ANA at 4 5 7 12 13 14; result = 45.7 a.u.
Modification = 2'F-ANA at 1 4 5 7 12 14; result = 45.2 a.u.
Modification = 2'F-ANA at 1 2 3 4 5 6 11 12; result = 94.6 a.u.
Modification = 2'F-ANA at 2 4 5 6 7 8 9 11 14 15; result = 53.2 a.u.
Modification = 2'F-ANA at 2 3 5 10 14; result = 69.3 a.u.
Modification = 2'F-ANA at 4 5 6 9 10 11 12; result = 50.4 a.u.
Modification = 2'F-ANA at 2 6 8 11 12 13; result = 525 a.u.
Modification = 2'F-ANA at 2 3 7 9 10 11 12; result = 419 a.u.
Modification = 2'F-ANA at 1 3 6 8 10 14; result = 75.8 a.u.
Modification = 2'F-ANA at 1 3 4 5 6 8 10 14 15; result = 77.6 a.u.
Modification = 2'F-ANA at 2 3 4 8 10 13 14; result = 190 a.u.
Modification = 2'F-ANA at 5 6 7 9 10 11 14; result = 46.3 a.u.
Modification = 2'F-ANA at 4 8 10; result = 91 a.u.
Modification = 2'F-ANA at 1 3 4 5 6 7 8 10 11 15; result = 49.7 a.u.
Modification = 2'F-ANA at 1 2 5 6 7 8 9 10 12 14; result = 55.9 a.u.
Modification = 2'F-ANA at 6 7 11 13 14; result = 159 a.u.
Modification = 2'F-ANA at 1 3 5 6 7 8 12 15; result = 144 a.u.
Modification = 2'F-ANA at 7 9 10 15; result = 164 a.u.
Modification = 2'F-ANA at 1 2 4 5 6 8 10 12 14; result = 68.9 a.u.

Study 3
Target: Fragile X messenger ribonucleoprotein 1, C-terminal low-complexity region (Fmr1, Mus musculus, UniProt P35922)
Technique: RNA Bind-n-Seq
Molecule type: RNA
Medium: in vitro
Tested at: 200 nM
Setting: whole 134-nt RNA, ends assumed
Together with: 150 mM KCl
Baseline: input library
Reading: higher = stronger binding
Endpoint: log2 enrichment
Oligonucleotide = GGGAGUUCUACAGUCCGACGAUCCCUGUGCUACACAUCGUAUGUACCGAAUCGGGGAAAAAGGGGAAAAAAAGGGGAAAGGGGAAAGUAUUAUGUUACGCCGUUCGGAUCUGCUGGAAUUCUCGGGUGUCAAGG; result = 0.236
Oligonucleotide = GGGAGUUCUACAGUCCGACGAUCCCUGUGCUACACAUCGUAUGUACCGAAUCGGGCCCCCCGGGCCCCCCGGGGCCCCCCGGGAAAGUAUUAUGUUACGCCGUUCGGAUCUGCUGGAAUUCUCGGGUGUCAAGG; result = -0.765
Oligonucleotide = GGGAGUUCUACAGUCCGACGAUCGCAGGAAGUAAAAACAAAUGGAAAUGCUUCGGAUAGUGGCAGGGGUGGGGGUUGCUAAGGAAAGGGUGGGAUGGGAGUGGGUAUAGAGUUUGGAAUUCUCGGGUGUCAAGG; result = -0.825
Oligonucleotide = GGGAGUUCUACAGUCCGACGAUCAGUCCUGUGCUACACAUCGUAUGUACCGAAUCGGGAGGGAAAAAAAGGGUUUUUGGGAAAGUAUUAUGUUACGCCGUUCGGAUCUGCACUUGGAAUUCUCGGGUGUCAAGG; result = 0.229
Oligonucleotide = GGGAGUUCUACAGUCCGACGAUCCACAGACAACACGCACCCACACAGACACAGAGGGAAGGGGUUGGGAUGAAAACAGGGUGCACAGCAGGGCGGGGUAGGACCCCAGCCCCUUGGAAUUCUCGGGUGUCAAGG; result = 0.535
Oligonucleotide = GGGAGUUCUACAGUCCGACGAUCGUCCUGUGCUACACAUCGUAUGUACCGAAUCGGGGUUUUUGGUUUUUGGGGUUUUUGGGAAAGUAUUAUGUUACGCCGUUCGGAUCUGCAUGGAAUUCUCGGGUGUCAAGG; result = -0.0141
Oligonucleotide = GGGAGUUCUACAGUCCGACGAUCCUCAAGUCCUGUGCUACACAUCGUAUGUACCGAAUCGGGGCGGGGCGGCGGGGAAAGUAUUAUGUUACGCCGUUCGGAUCUGCACUUCCAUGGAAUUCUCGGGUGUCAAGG; result = 1.05
Oligonucleotide = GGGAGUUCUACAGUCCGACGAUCUCCUCAAGUCCUGUGCUACACAUCGUAUGUACCGAAUCGGUUUGGAGGAGGAAAGUAUUAUGUUACGCCGUUCGGAUCUGCACUUCCAGCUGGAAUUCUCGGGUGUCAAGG; result = -0.634
Oligonucleotide = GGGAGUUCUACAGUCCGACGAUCUGGGAGGUGGAUUUUGUUUAUUUUUUUAGCUCAUUUCCAGGGGUGGGAAUUUUUUUAUAAUAUGUGUCAUGAAUAAAGUUGUUUUUGAAAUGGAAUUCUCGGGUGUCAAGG; result = 0.366
Oligonucleotide = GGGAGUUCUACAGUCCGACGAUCUGGCCCUGGUGGCAUGCGGGGAGGAAGAGGUGGCCUCAUGGAUCCUGGUGGUCCCGGUGGAAUGUUCAGAGGUGGCCGUGGUGGAGACAGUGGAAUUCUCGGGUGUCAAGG; result = -0.0456

Study 4
Target: Histone acetyltransferase KAT6A, winged helix 1, GST fusion (KAT6A, Homo sapiens, UniProt Q92794, residues 1-85)
Technique: protein binding microarray
Molecule type: double-stranded DNA, one strand shown
Medium: in vitro
Tested at: not given
Setting: 8-mer, flanks averaged, mean of 2 arrays, mostly near background
Baseline: not given
Reading: higher = stronger binding
Endpoint: E-score
Construct (chain): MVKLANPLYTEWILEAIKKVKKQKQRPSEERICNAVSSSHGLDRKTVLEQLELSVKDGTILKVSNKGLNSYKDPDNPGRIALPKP
Oligonucleotide = TCGGGAGA; result = 0.0681
Oligonucleotide = CTGATAAA; result = -0.181
Oligonucleotide = AACAGGTA; result = -0.113
Oligonucleotide = ACGGTCGC; result = 0.27
Oligonucleotide = AGGACAAC; result = -0.226
Oligonucleotide = CGCATGCG; result = 0.349
Oligonucleotide = CCGAGGAA; result = -0.0713
Oligonucleotide = GGTCATTA; result = 0.067
Oligonucleotide = TACCGACA; result = 0.134
Oligonucleotide = AGGTTAGC; result = -0.0113
Oligonucleotide = ACTATCAT; result = 0.0388
Oligonucleotide = CCATCCCC; result = -0.224
Oligonucleotide = GTACCGAC; result = 0.17
Oligonucleotide = CAAAGCAA; result = -0.0213
Oligonucleotide = GTCCACCA; result = -0.157
Oligonucleotide = ACTTAACC; result = -0.239
Oligonucleotide = GAAAATGC; result = -0.127
Oligonucleotide = AACAATCG; result = -0.0499
Oligonucleotide = AATATTGT; result = -0.0483
Oligonucleotide = GTGAAACA; result = -0.0704
Oligonucleotide = CAAGCGGC; result = 0.354

Some of these lines once more (study 2):
Modification = 2'F-ANA at 3 4 7 8 9 11 12 13 15; result = 663 a.u.
Modification = 2'F-ANA at 1 4 5 7 8 9 11 13; result = 47.7 a.u.
Modification = 2'F-ANA at 4 7 9 10 11; result = 86.1 a.u.
Modification = 2'F-ANA at 1 3 6 11 13; result = 223 a.u.
Modification = 2'F-ANA at 4 5 7 12 13 14; result = 45.7 a.u.
Modification = 2'F-ANA at 1 4 5 7 12 14; result = 45.2 a.u.
Modification = 2'F-ANA at 1 2 3 4 5 6 11 12; result = 94.6 a.u.
Modification = 2'F-ANA at 2 4 5 6 7 8 9 11 14 15; result = 53.2 a.u.
Modification = 2'F-ANA at 2 3 5 10 14; result = 69.3 a.u.
